Published values collected from several papers.
Each line is one published result; not all experiments were run side by side.
Chain of UniProt P57058 (whole entry, looked up): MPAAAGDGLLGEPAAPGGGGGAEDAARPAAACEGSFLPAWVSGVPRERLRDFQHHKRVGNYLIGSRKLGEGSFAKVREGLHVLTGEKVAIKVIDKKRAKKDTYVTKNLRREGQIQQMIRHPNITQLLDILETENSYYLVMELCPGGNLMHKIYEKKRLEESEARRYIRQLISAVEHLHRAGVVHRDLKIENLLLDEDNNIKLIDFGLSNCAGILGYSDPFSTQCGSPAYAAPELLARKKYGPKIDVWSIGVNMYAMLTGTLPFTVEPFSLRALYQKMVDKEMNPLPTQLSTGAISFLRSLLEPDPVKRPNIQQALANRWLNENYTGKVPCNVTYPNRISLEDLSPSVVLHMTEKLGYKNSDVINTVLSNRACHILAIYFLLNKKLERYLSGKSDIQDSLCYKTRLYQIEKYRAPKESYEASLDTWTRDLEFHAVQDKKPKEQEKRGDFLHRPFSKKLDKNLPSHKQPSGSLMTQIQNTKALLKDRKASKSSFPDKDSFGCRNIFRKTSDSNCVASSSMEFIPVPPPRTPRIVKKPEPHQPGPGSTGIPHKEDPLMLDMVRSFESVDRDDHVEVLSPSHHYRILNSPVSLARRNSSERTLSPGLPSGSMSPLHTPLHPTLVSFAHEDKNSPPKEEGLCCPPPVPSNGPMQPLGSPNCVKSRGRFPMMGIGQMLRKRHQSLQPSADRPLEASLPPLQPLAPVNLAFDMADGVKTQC
Chain of UniProt Q13523 (whole entry, looked up): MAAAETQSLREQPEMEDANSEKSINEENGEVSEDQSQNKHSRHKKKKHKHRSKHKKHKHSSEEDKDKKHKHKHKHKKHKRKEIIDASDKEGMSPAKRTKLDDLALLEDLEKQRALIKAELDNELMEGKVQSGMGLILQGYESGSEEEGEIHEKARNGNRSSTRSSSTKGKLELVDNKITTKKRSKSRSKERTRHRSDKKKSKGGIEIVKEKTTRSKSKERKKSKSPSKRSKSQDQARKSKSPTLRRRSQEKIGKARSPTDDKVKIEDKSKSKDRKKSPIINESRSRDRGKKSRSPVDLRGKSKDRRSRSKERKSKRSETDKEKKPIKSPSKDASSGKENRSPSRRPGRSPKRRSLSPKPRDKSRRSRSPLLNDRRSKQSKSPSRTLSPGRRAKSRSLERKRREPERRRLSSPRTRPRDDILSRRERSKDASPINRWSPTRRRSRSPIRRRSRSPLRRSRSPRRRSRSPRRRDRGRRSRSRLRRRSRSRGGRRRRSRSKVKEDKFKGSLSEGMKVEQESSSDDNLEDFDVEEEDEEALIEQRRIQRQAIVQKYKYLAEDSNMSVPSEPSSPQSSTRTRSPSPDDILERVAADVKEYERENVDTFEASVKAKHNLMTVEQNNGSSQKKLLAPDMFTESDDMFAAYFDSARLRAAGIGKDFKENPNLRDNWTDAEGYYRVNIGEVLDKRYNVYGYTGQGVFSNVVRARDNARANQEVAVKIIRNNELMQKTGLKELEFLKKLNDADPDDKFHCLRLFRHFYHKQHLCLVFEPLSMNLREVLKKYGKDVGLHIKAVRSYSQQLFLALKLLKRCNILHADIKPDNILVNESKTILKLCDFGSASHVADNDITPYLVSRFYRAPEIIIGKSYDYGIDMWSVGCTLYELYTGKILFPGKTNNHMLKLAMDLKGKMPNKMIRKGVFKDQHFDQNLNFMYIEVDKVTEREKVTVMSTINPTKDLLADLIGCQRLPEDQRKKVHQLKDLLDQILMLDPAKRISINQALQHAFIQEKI
Chain of UniProt Q9NY57 (whole entry, looked up): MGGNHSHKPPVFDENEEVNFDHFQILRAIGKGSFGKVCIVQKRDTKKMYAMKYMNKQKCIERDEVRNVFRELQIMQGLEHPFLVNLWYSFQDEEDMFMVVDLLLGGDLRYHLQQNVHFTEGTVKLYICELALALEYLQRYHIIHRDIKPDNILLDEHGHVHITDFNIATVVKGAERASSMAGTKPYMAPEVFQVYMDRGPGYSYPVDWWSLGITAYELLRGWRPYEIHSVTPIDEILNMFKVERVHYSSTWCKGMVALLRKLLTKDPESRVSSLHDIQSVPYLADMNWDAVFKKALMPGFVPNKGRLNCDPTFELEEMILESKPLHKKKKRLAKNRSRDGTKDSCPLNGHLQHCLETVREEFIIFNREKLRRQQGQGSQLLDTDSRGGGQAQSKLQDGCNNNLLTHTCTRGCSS

Structure (SMILES) | target or system | test | test system | conditions | measurement | value
CC(C)CC(=O)OC[C@H]1O[C@@](C#N)(c2ccc3c(N)ncnn23)[C@H](O)[C@@H]1O |  | general toxicity | beagle dog | oral, single dose | MTD | ≥ 2000 mg/kg
N=C(N)NCCC[C@@H](NC(=O)[C@@H](N)Cc1ccccc1)C(=O)N[C@@H](Cc1ccccc1)C(=O)N[C@@H](CCCCN)C(N)=O |  |  | human, plasma | subcutaneous, 15 mg, patients | AUC(0-t) | 3370 ng·h/mL
CC(C)(N)CNC(=O)O[C@@H]1CCC[C@]2(C1)OOC1(O2)C2CC3CC(C2)CC1C3 (stereo partly drawn) |  |  | male CD-1 mouse, plasma | intravenous, 3 mg/kg | AUC(0-inf) | 461 ng·h/mL
COc1ncccc1-c1cnn2ccc(N3CCN(C(=O)OC(C)C)CC3)nc12 | PIM3 (Homo sapiens, UniProt Q86V86) | binding, competition with immobilised ligand |  | 1 µM | remaining binding | 100%
[2H]c1c([2H])c([C@]2([2H])CCCN2C(=O)C(C)(C)Oc2ccc3cn[nH]c3c2)c([2H])c([2H])c1C([2H])([2H])[2H] | STK32B (Homo sapiens, UniProt Q9NY57) | binding, competition with immobilised ligand |  | 1 µM | remaining binding | 100%
Cc1nn(C)cc1-c1nc2c(N3CCN(Cc4ccc(Cl)cc4)CC3)c(Cl)cnc2[nH]1 | HUNK (Homo sapiens, UniProt P57058) | binding, competition with immobilised ligand |  | 1 µM | remaining binding | 66%
[18FH] |  |  | mouse, kidney | intravenous, 1 h | tracer uptake | 0.38 %ID/g
CC[C@H](C)CCCCC(=O)N[C@@H](CCN)C(=O)N[C@H](C(=O)N[C@@H](CCN)C(=O)N[C@H]1CCNC(=O)[C@H]([C@@H](C)O)NC(=O)[C@H](CCN)NC(=O)[C@H](CCN)NC(=O)[C@H](CC(C)C)NC(=O)[C@@H](CC(C)C)NC(=O)[C@H](CCN)NC1=O)[C@@H](C)O |  |  | male Sprague-Dawley rat, plasma | intravenous, 5 mg/kg | half-life | 171 min
Nc1nc(-c2ccccc2)nc2[nH]nc(Nc3ccc(C(F)(F)F)cc3)c12 |  |  | mouse, plasma | oral, 100 mg/kg, 4 h | concentration | 1110 ng/mL
Nc1ncc(-c2nc(N3CCOCC3)nc(N3CCOCC3)n2)c(C(F)F)n1 | PRPF4B (Homo sapiens, UniProt Q13523) | binding, competition with immobilised ligand |  | 10 µM | remaining binding | 100%
CC(C)C[C@H](NC(=O)[C@H](Cc1ccccc1)NC(=O)[C@H](Cc1ccccc1)NC(=O)Cc1ccc(-c2ccccc2)cc1)C(=O)N[C@@H](CCCCN)C(=O)N[C@@H](CCCNC(=N)N)C(=O)N[C@H](C(=O)N[C@@H](Cc1c[nH]c2ccccc12)C(=O)N[C@@H](CCCCN)C(=O)N[C@@H](CCCNC(=N)N)C(=O)O)C(C)C |  | metabolic stability | dog, liver microsomes | 5 min | compound remaining | 94.1%
O=C(Nc1cccnn1)N1CCN([C@@H]2CCOc3cc(C(F)(F)F)ccc32)CC1 |  |  | male Sprague-Dawley rat, plasma | oral, 3 mg/kg | half-life | 324 min

Excerpt of the above:
Structure (SMILES) | target or system | test | test system | conditions | measurement | value
[2H]c1c([2H])c([C@]2([2H])CCCN2C(=O)C(C)(C)Oc2ccc3cn[nH]c3c2)c([2H])c([2H])c1C([2H])([2H])[2H] | STK32B (Homo sapiens, UniProt Q9NY57) | binding, competition with immobilised ligand |  | 1 µM | remaining binding | 100%
